Measured values gathered from unrelated publications.
Every numbered part comes from another study and shows a few of its results, in no order.

Set 1 — method: universal PBM; form: double-stranded DNA, one strand shown; sample: in vitro; concentration: not given; reading: higher = stronger binding
Target: Sal-like protein 4, full length isoform B (SALL4, Homo sapiens, UniProt Q9UJQ4-2, residues 1-616)
Notes: 8-mer, flanks averaged, mean of replicates
The E-score of `CGGGTATA` is reported as 0.0901.
With `TCACATAA` the E-score was 0.261.
For `CTTAATGC`, the E-score was 0.176.
The E-score of `CATGCTCG` is reported as -0.0507.
`ACCGGGCG` gave an E-score of -0.353.
`CTGACCGC` gave an E-score of -0.294.
With `CTTCTTTC` the E-score was 0.00638.
`ATAGTTCG` has an E-score of 0.0977.
`TCGACCAA` has an E-score of -0.0659.
`CGCCCGTA` gave an E-score of -0.276.
The E-score of `TCTTCAAA` is reported as 0.193.
With `ATGACTGA` the E-score was -0.00653.
For `ACCGATCG`, the E-score was -0.142.
`CGGATAAG` gave an E-score of -0.102.
For `GGGCTCCA`, the E-score was -0.285.
`ATGGTGCC` gave an E-score of -0.216.
For `CGCCTCAG`, the E-score was -0.225.
`CCTGCCGC` gave an E-score of -0.343.
`AGTATCAT` gave an E-score of 0.237.
For `CCTCACGC`, the E-score was -0.056.

Set 2 — method: protein-binding microarray; form: double-stranded DNA, one strand shown; sample: in vitro; concentration: 0.8 µM; notes: whole 60-bp probe, no competitor; reading: higher = stronger binding
Target: Centromere-binding protein 1, full length, N-terminal tag (CBF1, Saccharomyces cerevisiae, UniProt P17106, residues 1-351)
Sequence of UniProt P17106 (whole entry, looked up): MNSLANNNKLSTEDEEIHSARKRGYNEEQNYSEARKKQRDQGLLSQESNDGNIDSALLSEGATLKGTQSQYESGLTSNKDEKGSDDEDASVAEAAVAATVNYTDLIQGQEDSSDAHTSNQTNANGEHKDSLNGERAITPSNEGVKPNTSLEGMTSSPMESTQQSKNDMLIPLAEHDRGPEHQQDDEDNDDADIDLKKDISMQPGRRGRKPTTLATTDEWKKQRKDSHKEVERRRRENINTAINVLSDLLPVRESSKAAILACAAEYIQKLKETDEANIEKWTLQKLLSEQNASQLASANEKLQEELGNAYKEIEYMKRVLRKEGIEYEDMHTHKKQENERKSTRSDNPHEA
`GAACATCCGGTCAATCATCAGGGTAATACATATTAGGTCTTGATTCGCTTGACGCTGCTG` gave a fluorescence intensity of 504 a.u.
`GAACACGATATATTTAATGTGACACCCATTTTATAGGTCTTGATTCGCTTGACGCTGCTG` gave a fluorescence intensity of 606 a.u.
`GAAACTTTGCGTTATCATCATATGATCTCAACATAGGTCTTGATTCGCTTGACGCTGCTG` gave a fluorescence intensity of 1130 a.u.
The fluorescence intensity of `GAACCTGTGTTCTATAACGTGAACCATAAGCTTTAGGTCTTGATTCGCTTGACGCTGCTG` is reported as 590 a.u.
For `GAATATTGCTTGTTCAACGTGAACTGGGTACGTTAGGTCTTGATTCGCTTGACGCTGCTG`, the fluorescence intensity was 521 a.u.
`GAATGATAAAAGCATGATGTGACGAATATCTAATAGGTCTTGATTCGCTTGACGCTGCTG` gave a fluorescence intensity of 674 a.u.
The fluorescence intensity of `CCTAACTACTATAGTGGTGACTCATAGCTTCGTACAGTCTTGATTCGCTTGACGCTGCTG` is reported as 559 a.u.
`CTAAGTCTTTTGATTATCATGACTAAAGTAAACTTCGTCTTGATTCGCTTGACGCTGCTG` gave a fluorescence intensity of 519 a.u.
`GAACCGAAAATAAAGCACATGTAAAGCATTAAGTAGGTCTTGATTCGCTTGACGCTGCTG` gave a fluorescence intensity of 847 a.u.
`GAAGCGCAAGCTCGCCATCACTGTAAATGAAATTAGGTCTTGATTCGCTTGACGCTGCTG` gave a fluorescence intensity of 499 a.u.
With `GAACGATTCAAAGCAGGTGAATTTCCATTACGTTAGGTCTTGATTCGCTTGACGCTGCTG` the fluorescence intensity was 530 a.u.
For `CTAAATTTTATGCGTCGGGTGACTTCAATTTGGTTCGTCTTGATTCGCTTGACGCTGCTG`, the fluorescence intensity was 876 a.u.
`CTATCAGTCAAAAGACGCGTGCAACAATACACGTTCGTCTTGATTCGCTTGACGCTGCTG` has a fluorescence intensity of 651 a.u.
With `CTACCCCGCTTTCATCATGTGAACATCTATAGATTCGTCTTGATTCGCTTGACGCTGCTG` the fluorescence intensity was 1120 a.u.
`CTATCTTTTTTTCTACACGTTGGTCTGATGTCTTTCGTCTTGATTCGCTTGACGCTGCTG` gave a fluorescence intensity of 631 a.u.
`GAATCATGTGATTTCCATGTGCGGCAACTTCAATAGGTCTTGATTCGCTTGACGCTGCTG` has a fluorescence intensity of 4700 a.u.

Set 3 — method: RNA Bind-n-Seq; form: RNA; sample: in vitro; concentration: 200 nM; notes: whole 134-nt RNA, ends assumed; with: 150 mM LiCl; baseline: input library; reading: higher = stronger binding; library: 7-deaza-guanosine replaces G
Target: Fragile X messenger ribonucleoprotein 1, C-terminal low-complexity region (Fmr1, Mus musculus, UniProt P35922)
With `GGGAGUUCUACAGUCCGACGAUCAGUCCUGUGCUACACAUCGUAUGUACCGAAUCGGGAAAAAAAGGGUUUGGGUUUGGGAAAGUAUUAUGUUACGCCGUUCGGAUCUGCACUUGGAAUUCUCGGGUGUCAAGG` the log2 enrichment was -2.29.
`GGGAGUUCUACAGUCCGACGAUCAAGUCCUGUGCUACACAUCGUAUGUACCGAAUCGGGGUUUUUGGGGAGGGGUGGGGAAAGUAUUAUGUUACGCCGUUCGGAUCUGCACUUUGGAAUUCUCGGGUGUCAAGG` gave a log2 enrichment of -1.32.
`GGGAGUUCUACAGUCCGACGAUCGCAGGAAGUAAAAACAAAUGGAAAUGCUUCGGAUAGUGGCAGGGGUGUGGGUUGCUAAGGAAAGGGUGGGAUGGGAGUGGGUAAAGAGUUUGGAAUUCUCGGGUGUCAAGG` gave a log2 enrichment of 1.6.
With `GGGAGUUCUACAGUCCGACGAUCGUCCUGUGCUACACAUCGUAUGUACCGAAUCGGGUGGGUUUUUUUGGGAAAAAAAGGGAAAGUAUUAUGUUACGCCGUUCGGAUCUGCACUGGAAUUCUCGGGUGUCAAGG` the log2 enrichment was -0.969.
`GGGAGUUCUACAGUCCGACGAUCACCAUGCAGGUGGGCAUAAAUGGGAAGUGGGGCAAGGGGGGGAUAGGGAGGGGGGUAACACUUUGGGAACAGGUGGUCCCAGGUCGUUUCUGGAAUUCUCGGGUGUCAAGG` has a log2 enrichment of 1.32.
The log2 enrichment of `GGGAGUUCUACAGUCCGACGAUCACCAUGCAGGUGGGCAUCUUUGGGAAGUGGGGCAAGCGGGGGAUAGGGAGGGGGGUAACACUUUGGGAACAGGUGGUCCCAGGUCGUUUCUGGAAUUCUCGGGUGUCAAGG` is reported as 1.09.
`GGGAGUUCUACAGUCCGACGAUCACCAUGCAGGUGGGCAUCUUUGGGAAGUGGGGCAAGGGGGGGAUAGGGAGGGGGGUAACACUUAAAGAACAGGUGGUCCCAGGUCGUUUCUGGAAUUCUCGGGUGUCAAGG` gave a log2 enrichment of 1.36.
`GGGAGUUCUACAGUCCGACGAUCUAACUUUAGAGGAGGAUCUGAUGGAUAUGGCAGUGGACGUGGAUUUGGGGAUGGCUAUAAUGGGUAUGGAGGAGGACGUGGAGGUGGCAAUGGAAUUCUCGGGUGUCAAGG` gave a log2 enrichment of 0.847.
The log2 enrichment of `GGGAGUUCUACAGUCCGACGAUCGGAAGGGGGCUUGCGCCACGGCAGUGAAUCUUCAUGGAUCUUCAUGCAGCCAUACAAACCCUGGUUCCAACAGAAUGGUGAAUUUUCGACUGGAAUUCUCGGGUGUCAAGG` is reported as -1.48.
With `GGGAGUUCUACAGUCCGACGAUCUCAAGUCCUGUGCUACACAUCGUAUGUACCGAAUCGGCCCGGGCCCGGGGCCCGGAAAGUAUUAUGUUACGCCGUUCGGAUCUGCACUUCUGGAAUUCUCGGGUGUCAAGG` the log2 enrichment was -1.7.
With `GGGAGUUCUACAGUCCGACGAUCUGUGCUACACAUCGUAUGUACCGAAUCGGGGCCCCCCCGGGCCCCCCCGGGCCCCCCCGGGGAAAGUAUUAUGUUACGCCGUUCGGAUCUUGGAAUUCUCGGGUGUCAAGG` the log2 enrichment was -0.79.

Set 4 — method: protein binding microarray; form: double-stranded DNA, one strand shown; sample: in vitro; concentration: not given; baseline: not given; reading: higher = stronger binding
Target: Histone acetyltransferase KAT6A, winged helix 2, GST fusion (KAT6A, Homo sapiens, UniProt Q92794, residues 85-181)
Notes: 8-mer, flanks averaged, mean of 2 arrays, mostly near background
Residues (chain): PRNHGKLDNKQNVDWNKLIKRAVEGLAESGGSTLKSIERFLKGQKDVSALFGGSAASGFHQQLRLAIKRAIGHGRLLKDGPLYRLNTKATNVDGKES
`ACCTGCGC` has an E-score of 0.0637.
`GTAGGTCA` gave an E-score of -0.256.
With `ACTTGGAC` the E-score was 0.1.
`CTTTGTGA` gave an E-score of 0.0516.
With `AGAGATAA` the E-score was -0.0355.
`GACACGCC` has an E-score of 0.134.
`CTACGGCA` has an E-score of 0.0192.
For `GCCAACCA`, the E-score was -0.00257.
The E-score of `GGACGTCA` is reported as -0.205.
`GTGAATGA` gave an E-score of -0.0973.
The E-score of `CATGCAAG` is reported as -0.0352.
With `ACACAGCC` the E-score was 0.00859.
For `AAGTCGCT`, the E-score was -0.13.
With `AAACTGCT` the E-score was -0.125.
The E-score of `ACGTGAGT` is reported as -0.154.
`AGCCGAAT` gave an E-score of 0.0657.
`CTTAAAAG` gave an E-score of 0.0524.
`TCTATTCA` gave an E-score of -0.0313.
`AATTGACT` gave an E-score of 0.00248.
For `CACCAGGA`, the E-score was 0.0225.
With `TGAGCTCA` the E-score was 0.153.
`CTTGTCAC` gave an E-score of 0.117.
`AGATTAAC` gave an E-score of 0.0981.
For `AAATTCAG`, the E-score was 0.138.
`TGTTCTAA` gave an E-score of 0.0739.

For quick reference, copied from above (set 4):
`AGCCGAAT` gave an E-score of 0.0657.
For `AAATTCAG`, the E-score was 0.138.
For `CACCAGGA`, the E-score was 0.0225.
`ACCTGCGC` has an E-score of 0.0637.
With `AAACTGCT` the E-score was -0.125.
The E-score of `CATGCAAG` is reported as -0.0352.
`CTTTGTGA` gave an E-score of 0.0516.
